Measured values of several laboratories.
Compare with care: the assays were run in different laboratories. Where no end group is shown, it is not given here.

O=C(NCc1ccc(Cl)c(Cl)c1)c1nc(Cl)c2cccnc2c1O — inhibition (Human betaherpesvirus 5; viral replication, inhibitor; HFF; 10 µM): 31%
DHVFLRF-NH2 (C-amide) — inhibition (Drosophila melanogaster; gut contraction; adult gut; 1 µM, within 10 min; baseline: DMS effect): 87%
O=C(O)c1nc(-c2ccc(C(F)(F)F)cc2)c2cccnc2c1O — inhibition (Human betaherpesvirus 5; viral replication, inhibitor; HFF; 10 µM): 16%
O=[N+]([O-])c1cc2nc(Cl)n(CCO)c2cc1[N+](=O)[O-] — inhibition (Human immunodeficiency virus 1; viral replication, inhibitor; TZM-bl; 10 µg/mL): -6.28%
VDHVFLRF-NH2 (C-amide) — inhibition (Drosophila melanogaster; heart rate; adult heart; 40 nL injected, 1 µM, 10 min; baseline: DMS): 68%
O=C(NCC1CCNCC1)c1cc2ccc(-c3ccoc3)cc2[nH]1 — inhibition (Zika virus; viral replication; U-87 MG, FLR; 10 µM): 99%
CC(=O)OC[C@]12Oc3c(-c4ccc(O)c5c4O[C@@]4(COC(C)=O)C(=C(O)C[C@@H](C)[C@H]4OC(C)=O)C5=O)ccc(O)c3C(=O)C1=C(O)C[C@@H](C)[C@H]2OC(C)=O — inhibition (Phyllosticta citricarpa; fungal growth; 10000 µg/mL, 504 h): 65.7%
OCCCn1c(Cl)nc2ccccc21 — inhibition (Human immunodeficiency virus 1; viral replication, inhibitor; TZM-bl; 1 µg/mL): 1.02%
HVFLRF-NH2 (C-amide) — inhibition (Drosophila melanogaster; heart rate; wandering third instar larval heart; 40 nL injected, 1 µM, 10 min; baseline: DMS): 36%
OCCCn1c(Cl)nc2cc(Br)c(Br)cc21 — inhibition (Human immunodeficiency virus 1; viral replication, inhibitor; TZM-bl; 1 µg/mL): -0.63%
DVDHVFLRF-NH2 (C-amide) — inhibition (Drosophila melanogaster; gut contraction; adult gut; 1 µM, within 10 min; baseline: DMS effect): 100%
O=C(NCc1ccc(F)cc1)c1nc(-c2ccccc2F)c2cccnc2c1O — inhibition (Human betaherpesvirus 5; viral replication, inhibitor; HFF; 10 µM): 74%
TDVDHVFLRA-NH2 (C-amide) — inhibition (Drosophila melanogaster; gut contraction; adult gut; 1 µM, within 10 min; baseline: DMS effect): 90%
O=C(NCC1CCNCC1)c1c[nH]c2nc(-c3ccc(CN4CCOCC4)cc3)ccc12 — inhibition (Zika virus; viral replication; U-87 MG, FLR; 10 µM): < 68%
OCCn1c(Cl)nc2cc(Br)c(Br)cc21 — inhibition (Human immunodeficiency virus 1; viral replication, inhibitor; TZM-bl; 1.25 µg/mL): 33.3%
C=C1[C@H](CO)[C@@H](O)C[C@@H]1n1cnc2c(=O)[nH]c(N)nc21 — inhibition (Hepatitis B virus; viral replication, inhibitor; HepG2.2.15; 10 µM, 48 h): 90%
O=[N+]([O-])c1ccc2c(c1)nc(Cl)n2CCCO — inhibition (Human immunodeficiency virus 1; viral replication, inhibitor; TZM-bl; 10 µg/mL): -1.1%
C[S+]([O-])c1ccc(-c2nc(-c3ccncc3)c(-c3ccc(F)cc3)[nH]2)cc1 (centres unmarked) — inhibition (Enterovirus A71; RT-qPCR, refers to: viral RNA; HEK-293T overexpressing Hsp27; 8 µM, 9 h): 50%
O=[N+]([O-])c1cc2nc(Cl)n(CCCO)c2cc1[N+](=O)[O-] — inhibition (Human immunodeficiency virus 1; viral replication, inhibitor; TZM-bl; 10 µg/mL): 0.11%
CNCC(=O)N[C@@H](CO)C(=O)N[C@H]1[C@H](O)[C@@H](O)[C@H](n2ccc(N)nc2=O)O[C@@H]1C(N)=O — inhibition (Cucumber mosaic virus; inactivation activity; host plant; 500 µg/mL): 74.2%

Some of these lines once more:
O=[N+]([O-])c1ccc2c(c1)nc(Cl)n2CCCO — inhibition (Human immunodeficiency virus 1; viral replication, inhibitor; TZM-bl; 10 µg/mL): -1.1%
C[S+]([O-])c1ccc(-c2nc(-c3ccncc3)c(-c3ccc(F)cc3)[nH]2)cc1 (centres unmarked) — inhibition (Enterovirus A71; RT-qPCR, refers to: viral RNA; HEK-293T overexpressing Hsp27; 8 µM, 9 h): 50%
O=[N+]([O-])c1cc2nc(Cl)n(CCCO)c2cc1[N+](=O)[O-] — inhibition (Human immunodeficiency virus 1; viral replication, inhibitor; TZM-bl; 10 µg/mL): 0.11%
